Assay results pooled from the literature.
Each numbered part is a random draw from the data of one study; scales do not carry over between parts.

Sample 1
Target: RING finger protein unkempt homolog, zinc fingers 1-6, SBP tag (UNK, Homo sapiens, UniProt Q9C0B0, residues 30-357)
Sequence of UniProt Q9C0B0 (30-357, looked up): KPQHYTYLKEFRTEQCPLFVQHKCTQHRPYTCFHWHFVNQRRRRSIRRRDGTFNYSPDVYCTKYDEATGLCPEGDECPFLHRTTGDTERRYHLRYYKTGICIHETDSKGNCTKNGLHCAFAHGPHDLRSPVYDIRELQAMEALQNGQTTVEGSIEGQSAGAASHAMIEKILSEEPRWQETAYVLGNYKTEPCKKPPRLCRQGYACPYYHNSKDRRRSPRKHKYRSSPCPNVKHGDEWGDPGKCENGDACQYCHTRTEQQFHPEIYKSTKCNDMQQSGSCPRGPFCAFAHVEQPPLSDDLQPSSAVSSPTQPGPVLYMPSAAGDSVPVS
Method: RNA Bind-n-Seq
Form: RNA
Sample: in vitro
Concentration: 100 nM
Notes: RNA with constant flanks, vertebrate orthologous sites, ends assumed
Baseline: input RNA pool
Direction: higher = stronger binding
All sequences stand within: GGGAGUUCUACAGUCCGACGAUC … CAACAGAGGAUUGAGCAUCA
Oligonucleotide	bound/input enrichment [ratio]
UACAUCUGGUGACAUAUGGCCUGGCCUUUCAGCUUAUGAUAACAGUCCUAGAUCUCCCCAUAGUCCUUCACCAAUUGCUACACCACCUAGUCAGAGUUCAUCUUGCUCUGAUGCACCCAU	1.21
CCUCUCACUUAACUGUGUCCAAAAUUGCUGUGAGGGUUGGAAACAUUCAUUAGUUUCUUGUAGAACUACACUGGCAGGUGCUCAAUUGCCAUCAUAGCAAGCAAGAUCAAAUACCAUCAC	0.992
GUUCAAACCUGUGGUACCAUGGCCCCAUGUUGAAGGAGUAGAAGUGGACUUAGAGUCUAUUAGAAGAAAAAACAAGGCGAAAAAUGAACAAGAGCGCCAUGCUGGAGGAGAUAACCAGAA	0.628
CCCCGAUUUUAGAUGUGAUAUUUAGGCUUUCAUUCCAGUUUGUUUUGUUUUUUUUUUGUUUAGAUACCAAUCUUUUAAAUUCUUGCAUUUUAGUAAGAAAGCUAUCUUUUUAUGGAUGUU	1.83
UGGGUUUGGGGUAGAAGGGUGGGAAGGGGCAGGAUAAGUGGAAUCUCUAGGGUGUAUGGGAAGUAGAGGGCAGUUAGUUCUAAGUGGGCUUUUAUGUUCCCUGUUGUGAGGGUGAGAACA	1.05
AGGGAGAAGAGCUCACAAAAUGAAAGGAAAACUAGUAAAGAGUUUCUAACAGUUAAAAGCUAAGAAAGAUUAGGACAAUUUUACAAAUGAGAAAAUAAAAAUCAAAUAAACAAAAAAGGA	1.15

Sample 2
Target: PABPC1L2, full length, GST fusion (mouse, UniProt A0ABA7IW68)
Method: RNAcompete
Form: RNA
Sample: in vitro
Concentration: 20 nM
Notes: 7-mer, probes averaged, single round
Baseline: mean of 7-mers
Direction: higher = stronger binding
Residues (chain): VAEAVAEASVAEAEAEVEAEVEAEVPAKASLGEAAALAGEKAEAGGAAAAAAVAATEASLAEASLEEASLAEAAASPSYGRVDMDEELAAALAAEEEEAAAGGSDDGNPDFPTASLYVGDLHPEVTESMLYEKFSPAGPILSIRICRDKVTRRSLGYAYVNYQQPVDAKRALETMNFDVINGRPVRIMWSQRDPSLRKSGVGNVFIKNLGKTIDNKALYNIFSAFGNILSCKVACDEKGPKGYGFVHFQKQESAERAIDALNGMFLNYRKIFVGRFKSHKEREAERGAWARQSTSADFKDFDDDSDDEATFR
Oligonucleotide	7-mer Z-score
ACACUUC	-0.238
UAAACUG	0.34
UUAUUCG	-0.335
CAUGGUG	-0.079
GUUACCG	-0.298
GACAGGU	-0.128
GUGCAUC	-0.157
UCUUUCC	-0.483
AACCGUG	-0.0174

Sample 3
Target: Probable WRKY transcription factor 33, C-terminal DNA-binding domain (WRKY33, Arabidopsis thaliana, UniProt Q8S8P5, residues 346-449)
Method: DNA-protein interaction ELISA
Form: double-stranded DNA, one strand shown
Sample: in vitro, bacterial lysate
Concentration: not given
Notes: whole dsDNA probe, crude lysate protein
Baseline: highest signal in screen
Direction: higher = stronger binding
Construct (chain): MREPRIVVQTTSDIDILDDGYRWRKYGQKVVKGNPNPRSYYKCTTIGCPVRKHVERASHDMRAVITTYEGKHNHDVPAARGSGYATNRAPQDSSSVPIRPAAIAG
Oligonucleotide	relative absorbance
AAAAAATACTCTTCCTCGTTCTTGGTAAAA	32 % of maximum
AAAAAACTTCCCTCCTTGTCCTCCCCAAAA	33.2 % of maximum
AAAAAACTCGTACATCTATCGCTACGAAAA	29.6 % of maximum
AAAAAAATTCGCAACCCTCACGTTCGAAAA	36.5 % of maximum
AAAAAAGTTGCCGACGATTGCGGGTTAAAA	61.8 % of maximum
AAAAAATAAATCGCGGCTACTGCTTCAAAA	47.6 % of maximum

Further values, each from its own experiment
Molecule	target	assay	system	setting	scale	measurement	result
PhoQ, residues 284 288 289 292 302 303 TNSAEL	PhoP, residues 12 14 15 18 19 TPLRH (Escherichia coli, UniProt P23836)	Sort-seq, refers to: YFP reporter	E. coli	PhoQ-PhoP variant library, added: 10 µM Mg2+	baseline: high Mg2+ state, higher = stronger signaling	fold induction	0.697
